Results collected from several papers.
Parts stem from different laboratories: compare values within a part only. Changes are numbered by the printed parent chain.

Set 1 — technique: RNA Bind-n-Seq; molecule type: RNA; medium: in vitro; concentration: not given; relative to: input RNA pool; direction: higher = stronger binding
Target: RING finger protein unkempt homolog, zinc fingers 1-6, GST-SBP tag (UNK, Homo sapiens, UniProt Q9C0B0, residues 30-357)
Setting: RNA with constant flanks, human and mouse sites, ends assumed
Residues (chain): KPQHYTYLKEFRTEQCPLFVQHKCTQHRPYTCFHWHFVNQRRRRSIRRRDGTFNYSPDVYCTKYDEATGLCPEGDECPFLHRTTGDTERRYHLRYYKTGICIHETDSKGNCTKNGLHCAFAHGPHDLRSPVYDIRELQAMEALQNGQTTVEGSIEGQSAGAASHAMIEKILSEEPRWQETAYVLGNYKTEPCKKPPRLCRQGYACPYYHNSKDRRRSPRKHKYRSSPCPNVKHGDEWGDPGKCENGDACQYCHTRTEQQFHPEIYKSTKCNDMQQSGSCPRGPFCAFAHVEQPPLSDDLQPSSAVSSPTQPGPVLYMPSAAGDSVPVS
Strand	bound/input enrichment [ratio]
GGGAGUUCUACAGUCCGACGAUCAGUGAAUACUUACUAUAAUUUGACUUGAAUAUGUAGCUCAUCCUUUACACCAACUCCUAAUUUUAAAUAAUUUCUACUCUGUCUUAAAUGAGAAGUACUUGGUUUUUUUUUUUCUUAAAUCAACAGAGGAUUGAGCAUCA	1.1
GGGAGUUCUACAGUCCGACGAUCAUAGCGCCCAGAGGAGAUGGGCAUUAUCCAUCGAGUUGUCCAGUGACUCACACUCGAGAGAAAAUUUAUGCGAUCUGCUCAGAUUAUGCCUUCCUCAACCAGGCAACAUCAGUCUACAAACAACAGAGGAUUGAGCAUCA	0.179
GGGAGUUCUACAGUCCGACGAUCGGACACGUCCGCGCGCAGUGGGAGCCCCAUGAGUAUCCGGCCAGCAUGGAGCGGAUGCAGAACUGGACCCCGGAUGAGUGCAUUCCGGAGUUCUACACCGAUCCCUCUAUCUUCCGCUCCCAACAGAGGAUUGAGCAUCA	0.0769
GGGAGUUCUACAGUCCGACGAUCAAAUCCCCCUGCCUAUAUUAUAAUGGAUCAUGCGAUAUCAGGAUGGGGAAUGUAUGACAUGGUUUAAAAAGAACUCAUUAUAAAAAAAAAAAAACAAAAAAAAUCAAAAAUUAAAAAAAACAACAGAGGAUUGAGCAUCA	0.431
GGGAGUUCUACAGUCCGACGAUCCUGCAUUUUGCAUGCAUAGUUUAAGAUUACUGGGUGCAGAGAGGGUUCAUUUCUCAAAAUUUAGUCACUGAUAAAUCAUUGUAACGGAUCAUUAUAAAAAUCAUAAACAUAUUUUGUUUGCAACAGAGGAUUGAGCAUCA	2.05
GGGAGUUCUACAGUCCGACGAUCGGAUCUUGUGACUGGCUUUGCUUGAUUGGUCAUUGGUAUCUCAACAAGCAUGGAGAUGAGAUUAGAAGUUUUGACAUCAACAAGUAUCAAGCAGAAAAAACCCUGGCCCAGAGUAUCCUGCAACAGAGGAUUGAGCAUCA	0.515
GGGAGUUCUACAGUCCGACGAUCCUCAUCGUCAUGGUCAGGCUCUGAUACCUGCUUUUAAAAUGGAGCUAGAAUGCUUGCUGGAUUGAAAGGGAGUGCCUAUCUAUAUUUAGCAAGAGACACUAUUACCAAAGAUUGUUGGUUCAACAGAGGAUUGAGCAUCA	0.133
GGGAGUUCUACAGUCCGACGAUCAUUUUGGAAUCAGUUCUUAUAAACAGCUCGAUUCAGUUUUAGCUAAAUUUAUAGUUUAGGUAGUAUGUUACAUUUGAAUUUUUGUCUUAAGAAAAGUUGACUGUUCAGAUAUUUUUCUACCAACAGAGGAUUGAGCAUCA	4.49
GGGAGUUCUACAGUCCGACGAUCUCGGGGGGGGGGGGCAGUCACCAGCUGAGCUGUACAGCCACAGCCACGGCCGCGGCAUGGCUCGGAGCUUGUUUGACACUGUGCUCAGUCUGUUUUUCUAGGGUUUCAGAUUCAUUGUAUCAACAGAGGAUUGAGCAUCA	0.44
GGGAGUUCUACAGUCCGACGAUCACAAAGCAGCUGACAGAAAUGCUACCCAGCAUCUUAAACCAGCUUGGUGCGGAUAGUCUGACUAGUUUAAGGAGACUGGCCGAAGCUCUGCCCAAACAAUCUGUGGAUGGAAAAGCACCACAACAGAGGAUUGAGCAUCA	0.0621
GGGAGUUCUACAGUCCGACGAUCAUUAAGCACCUGAAGGAAGAAAAUGAGAAGCUGAAUGGGUUCCUAGAACAUGAGCGGUGUAAUAAUAGUGUGAUGGCCAAAACUCUGGAGGAAUGUCGAGUUACCUUGGAAGGCUUGAAACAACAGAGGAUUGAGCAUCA	0.944

Set 2 — target: UBE2L6 UBC core domain (UniProt O14933); technique: yeast two-hybrid; medium: yeast; setting: mostly zero background; relative to: not given; direction: higher = stronger interaction
B1: RNF24 RING domain (UniProt Q9Y225); chain KVKELNLHELCAVCLEDFKPRDELGICPCKHAFHRKCLIKWLEVRKVCPLCNMPVLQLAQLH
B2: Ltn1 RING domain (UniProt Q6A009); chain VDKRFEGVEDCMICFSVIHGFNYSLPKKACRTCKKKFHSACLYKWFTSSNKSTCPLCRETFF
B3: ZNRF3 RING domain (UniProt Q9ULT6); chain DTLSSSSTSDCAICLEKYIDGEELRVIPCTHRFHRKCVDPWLLQHHTCPHCRHNIIEQKGNP
B4: TRIM48 RING domain (UniProt Q8IWZ4); chain ISQVFQRELTCPICMNYFIDPVTIDCGHSFCRPCFYLNWQDIPILTQCFECIKTIQQRNLKT
B5: RNF181 RING domain (UniProt Q9P0P0); chain VIRGSQAELKCPVCLLEFEEEETAIEMPCHHLFHSSCILPWLSKTNSCPLCRYELPTDDDTY
B6: DTX1 RING domain (UniProt Q86Y01); chain QKVKNPPDEDCTICMERLVTASGYEGVLRHKGVRPELVGRLGRCGHMYHLLCLVAMYSNGNKDGSLQCPTCKAIYGEKTGTQ
Construct (chain): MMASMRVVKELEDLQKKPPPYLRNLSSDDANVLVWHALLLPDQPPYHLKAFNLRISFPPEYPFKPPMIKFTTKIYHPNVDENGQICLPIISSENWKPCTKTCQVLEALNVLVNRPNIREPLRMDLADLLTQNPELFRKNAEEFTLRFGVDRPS
Sequence	lacZ reporter activity
B1 (RNF24 RING domain)	0
B2 (Ltn1 RING domain)	0
B3 (ZNRF3 RING domain)	0
B4 (TRIM48 RING domain)	0
MDDQGCPRCKTTKYRNPSLKLMVNVCGHTLCESCVDLLFVRGAGNCPECGTPLRKSNFRV (MNAT1 RING domain (UniProt P51948))	0
B5 (RNF181 RING domain)	0
KEQLEKHNDICAICYQDMKSAVITPCSHFFHAGCLKKWLYVQETCPLCHCHLKNSSQLP (RNF145 RING domain (UniProt Q96MT1))	0
B6 (DTX1 RING domain)	0

Set 3 — target: JUN, bZIP domain (human); technique: DHFR protein complementation; medium: yeast; relative to: wild-type JUN-FOS pair; direction: higher = stronger binding
Setting: single substitutions, most at no-binding floor
Parent: JUN, bZIP domain (human); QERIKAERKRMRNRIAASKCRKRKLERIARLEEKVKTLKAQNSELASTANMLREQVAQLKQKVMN
Substitution	binding fitness
L31H	-1.45 natural log
Q41F	-1.26 natural log
L45C	-1.25 natural log
L38V	-1.35 natural log
L45G	-1.34 natural log

Set 4 — technique: DHFR PCA, deep sequencing; medium: yeast; added: (+)-ABA 1.4 µM; relative to: wild-type fitted maximum; direction: higher = stronger binding
Target: ABI1, truncated, D143A, DHFR fusion (Arabidopsis thaliana)
Setting: methotrexate growth selection, single substitutions
Parent: PYL1, truncated, DHFR fusion (Arabidopsis thaliana); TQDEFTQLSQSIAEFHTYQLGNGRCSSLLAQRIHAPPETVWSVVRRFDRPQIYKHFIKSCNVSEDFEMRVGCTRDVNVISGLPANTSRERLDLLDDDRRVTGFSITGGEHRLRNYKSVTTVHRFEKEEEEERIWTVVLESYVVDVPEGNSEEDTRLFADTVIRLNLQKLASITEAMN; partner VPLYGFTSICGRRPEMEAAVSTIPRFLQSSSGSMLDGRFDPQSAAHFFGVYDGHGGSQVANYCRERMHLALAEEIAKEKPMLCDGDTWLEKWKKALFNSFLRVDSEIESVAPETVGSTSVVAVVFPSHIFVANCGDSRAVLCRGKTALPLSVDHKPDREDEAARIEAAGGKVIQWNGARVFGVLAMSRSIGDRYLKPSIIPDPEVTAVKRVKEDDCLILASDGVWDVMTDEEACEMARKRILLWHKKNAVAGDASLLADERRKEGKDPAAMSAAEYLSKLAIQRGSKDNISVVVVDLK
Substitution	relative binding score
G21S	51.3%
G23I	1.95%
G23K	37.3%
F103V	-7.33%
R32A	49.6%
L166G	6.27%
S150W	-3.22%
Q31R	25.3%
I12P	0.843%
T160K	11.9%
P36K	40.5%
D153Y	1.64%
V40Q	-6.87%
L156G	6.99%
E128P	53.1%
V70G	0.369%

Set 5 — target: CCNB3, cyclin fold, Cln2 fusion (human); technique: yeast growth competition, sequencing; medium: yeast; setting: weak parent motif; relative to: not given; direction: higher = stronger binding
Parent: INSM1 docking peptide (human); PKAIRKLHFEDEV; partner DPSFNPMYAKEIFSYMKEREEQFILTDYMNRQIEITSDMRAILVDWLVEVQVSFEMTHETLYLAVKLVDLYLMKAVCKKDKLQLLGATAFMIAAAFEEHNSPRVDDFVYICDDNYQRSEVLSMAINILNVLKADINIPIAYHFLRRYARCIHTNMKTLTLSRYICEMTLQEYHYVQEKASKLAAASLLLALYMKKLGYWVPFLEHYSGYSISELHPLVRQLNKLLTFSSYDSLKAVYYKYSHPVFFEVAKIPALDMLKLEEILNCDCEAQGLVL
Substitution	normalised enrichment score
E10Q	0.26
K2C	0.81
A3R	0.164
E12K	0.778
R5D	-0.0619
E12Q	0.311
L7M	0.22
F9K	-0.111
E12F	0.79
E12L	0.74
K2W	0.357
I4C	1.24
K6T	0.273
K6S	0.149
D11Y	0.375
E10S	0.449
R5A	-0.0448
L7S	-0.212
R5T	-0.119
K6G	-0.284
I4W	0.885
A3L	0.0533
A3N	-0.124
L7N	0.0887
K6F	0.159

Set 6 — technique: protein binding microarray; molecule type: double-stranded DNA, one strand shown; medium: in vitro; concentration: not given; relative to: not given; direction: higher = stronger binding
Target: Histone acetyltransferase KAT6A, winged helix 2, GST fusion (KAT6A, Homo sapiens, UniProt Q92794, residues 85-181)
Setting: 8-mer, flanks averaged, mean of 2 arrays, mostly near background
Residues (chain): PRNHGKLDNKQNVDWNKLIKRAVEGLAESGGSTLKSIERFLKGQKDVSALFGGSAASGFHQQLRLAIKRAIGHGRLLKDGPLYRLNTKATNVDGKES
Strand	E-score
CACGTTCG	-0.207
CAGGCCCA	0.00219
ATGCAACG	0.00694
CGACTGCA	-0.0235
CGTCTACA	-0.103
AATGATAC	-0.0522
TAAGCCAA	-0.131
CCTGTCTA	-0.0808
CCCGAATC	0.136
CTGTAGGA	-0.111
AGGATCAA	0.0527
TGTAGTAA	0.0193
GCATCGCA	0.0692
AACCGGTT	0.0443
CGGGGGGC	0.0453
GACGTGGC	-0.188
AGTCCCAC	-0.0296
ATTTGCAC	-0.0344
CCCAGGCA	0.161
